# Measurements pooled from the literature.
# Sequences of proteins named here, by UniProt entry; tags and fusion partners are left off. Residues count along the entry.
# UniProt P9WGR1, whole entry: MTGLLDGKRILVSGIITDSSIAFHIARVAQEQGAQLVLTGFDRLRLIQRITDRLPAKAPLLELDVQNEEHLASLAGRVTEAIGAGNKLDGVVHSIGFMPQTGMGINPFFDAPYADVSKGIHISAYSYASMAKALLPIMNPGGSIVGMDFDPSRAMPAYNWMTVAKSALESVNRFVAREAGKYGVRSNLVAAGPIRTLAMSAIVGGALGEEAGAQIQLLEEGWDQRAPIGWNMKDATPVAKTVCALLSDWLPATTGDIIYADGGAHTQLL
# UniProt P22303, whole entry, looked up: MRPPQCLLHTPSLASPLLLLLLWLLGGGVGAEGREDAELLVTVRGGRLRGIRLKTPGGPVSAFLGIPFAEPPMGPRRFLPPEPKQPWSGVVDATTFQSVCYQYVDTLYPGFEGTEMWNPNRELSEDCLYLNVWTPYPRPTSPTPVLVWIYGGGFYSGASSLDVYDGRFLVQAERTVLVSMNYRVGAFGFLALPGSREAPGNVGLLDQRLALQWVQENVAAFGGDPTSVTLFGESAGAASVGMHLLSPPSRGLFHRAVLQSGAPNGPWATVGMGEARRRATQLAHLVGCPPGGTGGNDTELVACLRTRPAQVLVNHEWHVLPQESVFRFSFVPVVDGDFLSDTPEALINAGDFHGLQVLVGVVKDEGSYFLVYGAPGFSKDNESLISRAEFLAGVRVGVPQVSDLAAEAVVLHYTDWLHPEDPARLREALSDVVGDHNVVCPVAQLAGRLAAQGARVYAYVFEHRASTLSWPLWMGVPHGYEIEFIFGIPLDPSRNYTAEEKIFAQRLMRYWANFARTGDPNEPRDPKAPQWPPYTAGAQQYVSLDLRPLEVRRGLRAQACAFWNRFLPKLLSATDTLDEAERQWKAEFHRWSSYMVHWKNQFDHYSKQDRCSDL
# UniProt Q9GZZ6, 25-450 limits assumed: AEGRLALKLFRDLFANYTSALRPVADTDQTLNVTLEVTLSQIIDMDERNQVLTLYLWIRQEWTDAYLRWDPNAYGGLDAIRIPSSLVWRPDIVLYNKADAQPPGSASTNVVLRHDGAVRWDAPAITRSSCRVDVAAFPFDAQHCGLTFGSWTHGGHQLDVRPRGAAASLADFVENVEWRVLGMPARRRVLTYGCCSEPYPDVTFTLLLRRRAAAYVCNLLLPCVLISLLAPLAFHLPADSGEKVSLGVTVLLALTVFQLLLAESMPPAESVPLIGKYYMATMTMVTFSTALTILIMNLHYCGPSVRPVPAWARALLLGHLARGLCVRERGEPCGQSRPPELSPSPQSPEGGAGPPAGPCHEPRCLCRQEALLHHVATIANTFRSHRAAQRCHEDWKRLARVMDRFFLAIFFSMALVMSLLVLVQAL
# UniProt Q9GZZ6, whole entry, looked up: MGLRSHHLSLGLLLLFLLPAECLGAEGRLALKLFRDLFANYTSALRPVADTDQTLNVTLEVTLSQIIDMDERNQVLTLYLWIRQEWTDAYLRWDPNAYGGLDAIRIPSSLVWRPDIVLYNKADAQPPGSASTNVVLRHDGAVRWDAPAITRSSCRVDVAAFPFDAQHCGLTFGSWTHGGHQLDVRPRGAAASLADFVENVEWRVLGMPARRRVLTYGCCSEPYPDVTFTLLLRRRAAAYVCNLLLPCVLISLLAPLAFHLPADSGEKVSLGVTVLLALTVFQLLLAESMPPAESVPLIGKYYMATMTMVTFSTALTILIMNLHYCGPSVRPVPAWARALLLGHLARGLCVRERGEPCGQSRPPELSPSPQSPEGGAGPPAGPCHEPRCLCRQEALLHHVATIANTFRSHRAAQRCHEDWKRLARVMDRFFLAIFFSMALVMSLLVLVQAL
# UniProt Q9UGM1, 26-479 limits assumed: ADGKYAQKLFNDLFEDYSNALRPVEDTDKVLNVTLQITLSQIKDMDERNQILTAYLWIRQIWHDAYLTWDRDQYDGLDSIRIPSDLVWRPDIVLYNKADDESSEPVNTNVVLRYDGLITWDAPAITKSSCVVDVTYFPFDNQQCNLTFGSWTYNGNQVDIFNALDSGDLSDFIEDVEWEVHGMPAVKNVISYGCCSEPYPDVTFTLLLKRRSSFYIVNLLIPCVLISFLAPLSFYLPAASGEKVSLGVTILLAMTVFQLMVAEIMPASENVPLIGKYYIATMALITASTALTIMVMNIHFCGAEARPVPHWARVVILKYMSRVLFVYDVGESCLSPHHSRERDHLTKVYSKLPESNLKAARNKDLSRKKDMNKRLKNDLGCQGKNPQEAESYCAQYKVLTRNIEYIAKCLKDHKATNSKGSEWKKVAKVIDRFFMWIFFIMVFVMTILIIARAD
# UniProt Q9UGM1, whole entry, looked up: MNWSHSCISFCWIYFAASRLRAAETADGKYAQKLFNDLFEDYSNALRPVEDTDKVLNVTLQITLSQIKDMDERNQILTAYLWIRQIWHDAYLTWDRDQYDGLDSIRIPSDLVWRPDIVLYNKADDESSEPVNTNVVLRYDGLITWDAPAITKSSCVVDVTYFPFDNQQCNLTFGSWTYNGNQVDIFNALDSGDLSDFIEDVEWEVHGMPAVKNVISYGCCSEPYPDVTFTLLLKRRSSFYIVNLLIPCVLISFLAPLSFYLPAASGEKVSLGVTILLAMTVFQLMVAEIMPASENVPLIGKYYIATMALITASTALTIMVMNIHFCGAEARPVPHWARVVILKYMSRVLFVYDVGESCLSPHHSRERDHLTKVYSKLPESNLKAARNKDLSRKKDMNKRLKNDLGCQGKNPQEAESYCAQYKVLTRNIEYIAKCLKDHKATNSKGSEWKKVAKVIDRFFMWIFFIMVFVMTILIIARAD
# UniProt P23977, whole entry: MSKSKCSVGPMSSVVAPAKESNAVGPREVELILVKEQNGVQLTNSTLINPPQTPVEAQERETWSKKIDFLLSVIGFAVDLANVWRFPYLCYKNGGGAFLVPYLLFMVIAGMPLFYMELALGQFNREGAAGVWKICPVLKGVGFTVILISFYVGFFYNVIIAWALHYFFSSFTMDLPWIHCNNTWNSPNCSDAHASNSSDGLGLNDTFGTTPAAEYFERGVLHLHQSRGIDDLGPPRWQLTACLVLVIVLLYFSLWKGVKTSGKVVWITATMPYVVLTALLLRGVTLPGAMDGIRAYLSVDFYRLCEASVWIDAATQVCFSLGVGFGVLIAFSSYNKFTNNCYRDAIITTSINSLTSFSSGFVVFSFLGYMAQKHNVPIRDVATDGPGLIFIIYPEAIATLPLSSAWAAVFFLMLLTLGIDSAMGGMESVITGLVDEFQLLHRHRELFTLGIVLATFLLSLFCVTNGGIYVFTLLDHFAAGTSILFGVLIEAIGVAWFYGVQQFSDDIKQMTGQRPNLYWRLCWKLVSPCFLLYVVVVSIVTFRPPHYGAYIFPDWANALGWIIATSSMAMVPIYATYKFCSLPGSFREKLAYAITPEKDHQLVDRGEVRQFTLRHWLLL
# UniProt P06276, whole entry, looked up: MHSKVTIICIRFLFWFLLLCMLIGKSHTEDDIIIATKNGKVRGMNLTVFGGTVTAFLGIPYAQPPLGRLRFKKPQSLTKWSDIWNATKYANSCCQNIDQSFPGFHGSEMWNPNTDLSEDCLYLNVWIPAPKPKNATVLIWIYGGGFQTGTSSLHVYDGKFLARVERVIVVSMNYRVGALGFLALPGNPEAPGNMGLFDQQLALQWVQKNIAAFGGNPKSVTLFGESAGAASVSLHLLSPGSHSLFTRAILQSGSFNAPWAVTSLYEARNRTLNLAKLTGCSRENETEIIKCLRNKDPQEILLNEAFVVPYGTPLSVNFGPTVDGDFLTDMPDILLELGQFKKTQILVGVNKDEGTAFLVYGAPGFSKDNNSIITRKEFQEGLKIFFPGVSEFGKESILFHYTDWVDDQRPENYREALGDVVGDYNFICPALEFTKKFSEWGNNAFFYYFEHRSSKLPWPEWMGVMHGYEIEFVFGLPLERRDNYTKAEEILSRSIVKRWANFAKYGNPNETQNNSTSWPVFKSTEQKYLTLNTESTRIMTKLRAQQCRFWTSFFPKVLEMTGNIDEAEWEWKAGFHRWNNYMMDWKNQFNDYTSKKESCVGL
# UniProt Q869C3, whole entry, looked up: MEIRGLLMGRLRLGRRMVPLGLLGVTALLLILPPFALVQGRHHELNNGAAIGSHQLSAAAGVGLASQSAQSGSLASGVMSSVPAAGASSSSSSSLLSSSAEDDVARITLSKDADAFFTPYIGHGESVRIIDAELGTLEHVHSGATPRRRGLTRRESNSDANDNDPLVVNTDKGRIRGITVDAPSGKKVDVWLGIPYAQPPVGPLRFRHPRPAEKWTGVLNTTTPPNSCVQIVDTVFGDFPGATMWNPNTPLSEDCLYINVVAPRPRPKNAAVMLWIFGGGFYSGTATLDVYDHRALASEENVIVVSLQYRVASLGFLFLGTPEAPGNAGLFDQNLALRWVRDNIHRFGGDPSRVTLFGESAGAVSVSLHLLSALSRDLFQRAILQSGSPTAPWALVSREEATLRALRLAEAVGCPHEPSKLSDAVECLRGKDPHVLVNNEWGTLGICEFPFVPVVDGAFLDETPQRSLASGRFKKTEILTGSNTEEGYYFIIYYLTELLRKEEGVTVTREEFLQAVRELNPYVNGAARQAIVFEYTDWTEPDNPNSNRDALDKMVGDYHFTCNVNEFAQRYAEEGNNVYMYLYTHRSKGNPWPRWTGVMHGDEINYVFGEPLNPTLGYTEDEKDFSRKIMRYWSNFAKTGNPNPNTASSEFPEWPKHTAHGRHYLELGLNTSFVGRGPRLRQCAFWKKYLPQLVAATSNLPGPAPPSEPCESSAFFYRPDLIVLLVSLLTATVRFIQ
# UniProt P9WFX1, whole entry: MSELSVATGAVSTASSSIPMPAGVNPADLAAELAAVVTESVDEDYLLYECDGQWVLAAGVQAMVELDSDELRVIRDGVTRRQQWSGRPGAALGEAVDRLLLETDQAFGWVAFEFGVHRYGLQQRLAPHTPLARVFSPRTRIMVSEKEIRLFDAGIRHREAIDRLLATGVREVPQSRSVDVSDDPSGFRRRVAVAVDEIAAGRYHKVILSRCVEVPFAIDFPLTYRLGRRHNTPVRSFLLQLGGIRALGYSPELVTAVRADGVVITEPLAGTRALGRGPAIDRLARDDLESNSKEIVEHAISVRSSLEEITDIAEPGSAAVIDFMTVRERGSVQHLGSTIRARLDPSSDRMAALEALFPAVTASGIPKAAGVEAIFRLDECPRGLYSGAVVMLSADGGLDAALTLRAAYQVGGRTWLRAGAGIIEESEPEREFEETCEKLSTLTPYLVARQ
# UniProt P50406, whole entry: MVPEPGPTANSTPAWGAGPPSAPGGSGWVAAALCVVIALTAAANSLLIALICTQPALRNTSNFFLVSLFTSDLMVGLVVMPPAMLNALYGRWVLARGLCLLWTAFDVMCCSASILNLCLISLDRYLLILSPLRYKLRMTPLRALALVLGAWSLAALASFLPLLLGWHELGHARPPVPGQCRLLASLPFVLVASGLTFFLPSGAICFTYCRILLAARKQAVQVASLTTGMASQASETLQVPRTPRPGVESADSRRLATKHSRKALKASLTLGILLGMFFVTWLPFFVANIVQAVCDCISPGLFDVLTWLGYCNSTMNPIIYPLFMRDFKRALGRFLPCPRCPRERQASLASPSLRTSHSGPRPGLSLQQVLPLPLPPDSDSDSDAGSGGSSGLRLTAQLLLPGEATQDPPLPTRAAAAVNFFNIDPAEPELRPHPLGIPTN
# UniProt O42275, whole entry, looked up: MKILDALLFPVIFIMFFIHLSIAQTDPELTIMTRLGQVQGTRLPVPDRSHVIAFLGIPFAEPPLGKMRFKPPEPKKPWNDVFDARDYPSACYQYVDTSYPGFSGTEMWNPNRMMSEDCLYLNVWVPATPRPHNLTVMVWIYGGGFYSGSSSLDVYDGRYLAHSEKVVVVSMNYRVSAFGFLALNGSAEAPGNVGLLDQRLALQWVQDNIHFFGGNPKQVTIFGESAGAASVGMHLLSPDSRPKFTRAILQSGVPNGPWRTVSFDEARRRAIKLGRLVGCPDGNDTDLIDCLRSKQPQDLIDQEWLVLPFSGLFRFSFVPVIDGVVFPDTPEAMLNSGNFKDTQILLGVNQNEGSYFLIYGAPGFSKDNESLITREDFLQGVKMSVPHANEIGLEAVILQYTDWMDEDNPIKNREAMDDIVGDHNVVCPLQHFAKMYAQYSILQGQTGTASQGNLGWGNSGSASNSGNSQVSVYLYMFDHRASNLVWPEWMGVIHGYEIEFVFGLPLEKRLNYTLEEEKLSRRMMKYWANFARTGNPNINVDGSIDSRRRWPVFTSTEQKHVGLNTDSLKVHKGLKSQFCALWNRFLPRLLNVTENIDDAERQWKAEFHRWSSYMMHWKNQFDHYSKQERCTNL
# UniProt I6WXK4, whole entry: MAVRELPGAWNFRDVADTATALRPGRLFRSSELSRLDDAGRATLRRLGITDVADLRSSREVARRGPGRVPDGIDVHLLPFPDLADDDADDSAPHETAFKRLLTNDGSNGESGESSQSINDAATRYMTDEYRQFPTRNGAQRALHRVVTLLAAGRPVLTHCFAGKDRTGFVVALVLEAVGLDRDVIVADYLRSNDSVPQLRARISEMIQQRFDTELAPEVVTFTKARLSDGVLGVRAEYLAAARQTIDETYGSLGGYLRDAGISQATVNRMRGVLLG
# Compare with care: the assays were run in different laboratories. ± marks the error that the study gave.
# inhA: Enoyl-[acyl-carrier-protein] reductase [NADH] (inhA, Mycobacterium tuberculosis, UniProt P9WGR1)
# ACHE: Acetylcholinesterase (ACHE, Homo sapiens, UniProt P22303)
# Neuronal acetylcholine receptor; alpha9/alpha10: Neuronal acetylcholine receptor; alpha9/alpha10 (Homo sapiens, UniProt Q9GZZ6+Q9UGM1)
SMILES,target or system,assay,system,setting,quantity,result
"[11CH3]Nc1ccc(C(=O)C2CCN(C3Cc4ccccc4CC3O)CC2)cc1 (single isomer, unassigned)",,,"Sprague-Dawley rat, brain stem",30 min,uptake,0.245 %ID/g
CCCNC(C)Cc1ccccc1 (stereo not shown),"Sodium-dependent dopamine transporter (Slc6a3, Rattus norvegicus, UniProt P23977)","dopamine uptake, inhibitor",rat brain synaptosomes,with: [3H]dopamine,IC50,1010 ± 101 nM
c1cc[n+](CCCCCCCCCC[n+]2cccc3ccccc32)cc1,"Cholinesterase (BCHE, Homo sapiens, UniProt P06276)","enzyme activity, inhibitor",,,IC50,3200 ± 500 nM
C[C@H](CS)C(=O)N[C@H](Cc1c[nH]c2ccccc12)C(=O)O,Klebsiella pneumoniae,,IMP-1 producing,"25 µM, with: meropenem",MIC of meropenem,1 µg/mL
Oc1cc(CCCc2ccccc2)ccc1Oc1ccc(Cl)cc1Cl,inhA,inhibitor,,,IC50,50 ± 14 nM
C=CC[N+](C)(C)c1ccc(CCC(=O)CCc2ccc([N+](C)(C)CC=C)cc2)cc1,"Acetylcholinesterase (Ace, Anopheles gambiae, UniProt Q869C3)","enzyme activity, inhibitor, Ellman",,"10 min, room temperature, with: acetylthiocholine",IC50,199 nM
NCCNCCSc1ccccc1,,shake flask,simulated gastric fluid,"24 h, pH 1.2, 37 °C",solubility,747 ± 30 mg/mL
O=C(O)c1ccc(-c2ccc(C(F)(F)F)cc2Cl)o1,"mbtI (Mycobacterium tuberculosis, UniProt P9WFX1)","enzyme activity, inhibitor",,,IC50,28500 ± 2600 nM
CC(C)(C)c1cc[n+](COC[n+]2ccc(C(C)(C)C)cc2)cc1,ACHE,"enzyme activity, inhibitor",,,IC50,12000 ± 2000 nM
CN(C(=O)Cc1ccc(Cl)c(Cl)c1)C1CCCCC1N1CCCC1 (stereo not shown),"PKD2L1 (Homo sapiens, UniProt Q9P0L9, F514A)","tail current, inhibitor, automated patch clamp",,mutant F514A,IC50,1000 nM
c1cc[n+](CCCCCCCCCC[n+]2ccccc2)cc1,ACHE,"enzyme activity, inhibitor",,,IC50,400 ± 80 nM
C[C@@H](O)[C@@H]1NC(=O)[C@@H]2CSSC[C@@H](C(=O)N[C@H](CC(=O)N[C@@H](CCCNC(=N)N)C(=O)O)Cc3ccc(O)cc3)NC(=O)[C@H](CCC(N)=O)NC(=O)[C@H](Cc3ccc(O)c(I)c3)NC(=O)[C@H](CCCNC(=N)N)NC(=O)[C@H](CSSC[C@H](NC(=O)CN)C(=O)N2)NC(=O)[C@H](CCCNC(=N)N)NC(=O)[C@@H]2CCCN2C(=O)[C@H](CC(=O)O)NC1=O,Neuronal acetylcholine receptor; alpha9/alpha10,"ion current, antagonist",,,IC50,0.85 nM
COc1ccc(CN[C@@H]2CO[C@H](C(c3ccccc3)c3ccccc3)C[C@H]2O)cc1,"5-hydroxytryptamine receptor 6 (HTR6, Homo sapiens, UniProt P50406)",radioligand binding,,"10 µM, with: [3H]LSD",inhibition,8.7%
CCC(C)Cc1ccc(Oc2ccc(Cl)cc2Cl)c(O)c1 (stereo not shown),inhA,inhibitor,,,IC50,130 ± 56 nM
NC[C@@H](NC[C@@H]1CCCN1C[C@@H](CO)NC[C@@H](NCCC1CC2CCC1C2)c1ccccc1)c1ccccc1 (stereo partly shown),Klebsiella pneumoniae,bacterial growth,,"16 µM, fold shift of IC90, with: amikacin",potentiation of amikacin,2.3 fold
O=C(O)C(=O)CC(=O)C1(Cc2ccc(Cl)cc2)CCN(Cc2ccccc2)CC1,"RNA-dependent RNA polymerase, endonuclease domain (Heartland virus, UniProt A0A075M4H4)",endonuclease activity,,,IC50,3300 ± 400 nM
C(=N\N1CCN(Cc2cccc3ccccc23)CC1)/c1ccccc1,"Acetylcholinesterase (ache, Electrophorus electricus, UniProt O42275)","enzyme activity, inhibitor, Ellman",,"10 min preincubation, pH 8, 23 °C",IC50,985000 ± 309000 nM
CC(CCN[C@H](CN[C@H](CO)CN1CCC[C@H]1CN[C@H](CN)c1ccccc1)c1ccccc1)c1ccccc1 (stereo partly shown),Escherichia coli,bacterial growth,,"8 µM, fold shift of IC50, with: amikacin",potentiation of amikacin,2.1 fold
C#CCOc1ccc2cc(OCC#C)c(C(=O)O)cc2c1,"Triple specificity protein phosphatase PtpB (ptpB, Mycobacterium tuberculosis, UniProt I6WXK4)",inhibitor,,pH 7,IC50,50000 nM
CC(C)CCc1ccc(Oc2ccc(Cl)cc2Cl)c(O)c1,inhA,inhibitor,,,IC50,63 ± 9 nM
CN1CC[C@]23c4c5ccc(O)c4O[C@H]2c2ncc(-c4ccc(Cl)cc4)cc2C[C@@]3(OCCCc2ccccc2)[C@H]1C5,,,CD-1 mouse neuropathy model,"sc, 3.2 mg/kg, naltrindole 5 min before, with: naltrindole 10 mg/kg ip",time to zero efficacy,2.9 days
Cc1ccccc1-c1ccc(Oc2ccc(Cl)cc2Cl)c(O)c1,inhA,inhibitor,,,IC50,1300 ± 77 nM
C[C@@H]1NC(=O)[C@H](CCCNC(=N)N)NC(=O)[C@H](CCCNC(=N)N)NC(=O)[C@@H]2CCCN2C(=O)[C@H](CO)NC(=O)[C@@H]2CSSC[C@H](NC(=O)CN)C(=O)N[C@@H](CSSC[C@@H](C(N)=O)NC(=O)[C@H](CO)NC(=O)[C@H](CCCNC(=N)N)NC1=O)C(=O)N[C@@H](CO)C(=O)N[C@@H](Cc1c[nH]cn1)C(=O)N1CCC[C@H]1C(=O)N[C@@H](C)C(=O)N2,Neuronal acetylcholine receptor; alpha9/alpha10,"ion current, antagonist, two-electrode voltage clamp",Xenopus oocytes,"holding -70 mV, with: 100 µM acetylcholine",IC50,1120 nM
CCc1ccc(Oc2ccc(Cl)cc2Cl)c(O)c1,inhA,inhibitor,,,IC50,120 ± 19 nM
C=CC(=O)Nc1cc(-n2c(=O)ccc3cnc4ccc(-c5cn[nH]c5)cc4c32)ccc1C,Ramos,western blot,,"concentration not given, 4 h",MNK phosphorylation,no effect

# Some of these lines once more:
SMILES,target or system,assay,system,setting,quantity,result
CN(C(=O)Cc1ccc(Cl)c(Cl)c1)C1CCCCC1N1CCCC1 (stereo not shown),"PKD2L1 (Homo sapiens, UniProt Q9P0L9, F514A)","tail current, inhibitor, automated patch clamp",,mutant F514A,IC50,1000 nM
c1cc[n+](CCCCCCCCCC[n+]2ccccc2)cc1,ACHE,"enzyme activity, inhibitor",,,IC50,400 ± 80 nM
C[C@@H](O)[C@@H]1NC(=O)[C@@H]2CSSC[C@@H](C(=O)N[C@H](CC(=O)N[C@@H](CCCNC(=N)N)C(=O)O)Cc3ccc(O)cc3)NC(=O)[C@H](CCC(N)=O)NC(=O)[C@H](Cc3ccc(O)c(I)c3)NC(=O)[C@H](CCCNC(=N)N)NC(=O)[C@H](CSSC[C@H](NC(=O)CN)C(=O)N2)NC(=O)[C@H](CCCNC(=N)N)NC(=O)[C@@H]2CCCN2C(=O)[C@H](CC(=O)O)NC1=O,Neuronal acetylcholine receptor; alpha9/alpha10,"ion current, antagonist",,,IC50,0.85 nM
COc1ccc(CN[C@@H]2CO[C@H](C(c3ccccc3)c3ccccc3)C[C@H]2O)cc1,"5-hydroxytryptamine receptor 6 (HTR6, Homo sapiens, UniProt P50406)",radioligand binding,,"10 µM, with: [3H]LSD",inhibition,8.7%
